Results from different studies.
Protocols differ between the studies behind these lines. ± marks the error that the study gave.

SMILES	species	sample	route	dose	time	notes	AUC(0-t)
O=C(O)c1c(O)cc(O[C@@H]2O[C@H](CO)[C@@H](O)[C@H](O)[C@H]2O)cc1/C=C/c1ccccc1	Sprague-Dawley rat	plasma	intravenous	1.0 mg/kg	–	–	1140 ± 135 ng·h/mL
O=C(NS(=O)(=O)c1cccs1)c1cc2ccccc2n1Cc1ccc(Br)c2ccccc12	Sprague-Dawley rat, male	plasma	oral	20 mg/kg	–	–	11000 ng·h/mL
OC1(C(F)(F)F)CCN(c2nc(Nc3ccnc(C(F)(F)F)c3)nc(-c3cccc(C(F)(F)F)n3)n2)C1 (stereo not drawn)	Sprague-Dawley rat, both sexes	plasma	oral gavage	5 mg/kg	–	–	6640 ± 950 ng·h/mL
COCCN(C)CC(=O)NC(Cc1ccc(-c2ccccc2)cc1)B(O)O (stereo not drawn)	male Sprague-Dawley rats	plasma	intravenous	1 mg/kg	24 h	citrate ester	2.34 µM·h
CCCC[C@H](OC(C)=O)c1ccccc1C(=O)O	Sprague-Dawley rat, both sexes	whole blood	intravenous	5 mg/kg	day 7	–	4250 ± 1150 ng·h/mL
CNC(=O)C1CCCN(C(=O)C2CC3CCC2N3C(=O)[C@@H]2C[C@@H](O)CN2C(=O)NCc2cccc(Cl)c2F)C1 (mixture of isomers)	rat, Sprague-Dawley	–	oral	8 mg/kg	–	–	6.44 ng·h/mL
C=C(NC(=O)c1csc(-c2nc3c(cc2O)-c2nc(cs2)C(=O)NC(C(C)O)C(=O)NC(=C(C)OC)c2nc(cs2)C(=O)NC2c4nc(cs4)C(=O)NC(COC(=O)c4c5c6c(cccc6n4O)COC(=O)C(OC4CC(C)(O)C(N(C)C)C(C)O4)C2OC5)c2nc-3cs2)n1)C(N)=O (stereo not drawn)	Sprague-Dawley rats, male	plasma	intravenous infusion	6 mg/kg	day 1	multiple dosing	1490 ng·h/mL
Cc1cccc(C)c1CNc1cc(C(=O)N2CCC2)cn2c(C)c(C)nc12	rat Sprague-Dawley male	plasma	oral	10 mg/kg	–	–	608 ng·h/mL
COc1ccc([C@@H]2CC(=O)c3c(O)cc(O[C@@H]4O[C@H](CO)[C@@H](O)[C@H](O)[C@H]4O[C@@H]4O[C@@H](C)[C@H](O)[C@@H](O)[C@H]4O)cc3O2)cc1O	Sprague-Dawley rat, male, lean	plasma	intravenous	4 mg/kg	–	–	32.6 ± 8.98 ng·h/mL

A few entries again:
SMILES	species	sample	route	dose	time	notes	AUC(0-t)
CCCC[C@H](OC(C)=O)c1ccccc1C(=O)O	Sprague-Dawley rat, both sexes	whole blood	intravenous	5 mg/kg	day 7	–	4250 ± 1150 ng·h/mL
